# Measured values gathered from unrelated publications.
# Compare with care: the assays were run in different laboratories. Values joined by “and” are separate records of one study, mostly repeats; a detail may differ. ± gives the spread as reported.
# Mapk1: Mitogen-activated protein kinase 1 (Mapk1, Rattus norvegicus, UniProt P63086)
# UniProt P63086, sequence (whole entry, looked up): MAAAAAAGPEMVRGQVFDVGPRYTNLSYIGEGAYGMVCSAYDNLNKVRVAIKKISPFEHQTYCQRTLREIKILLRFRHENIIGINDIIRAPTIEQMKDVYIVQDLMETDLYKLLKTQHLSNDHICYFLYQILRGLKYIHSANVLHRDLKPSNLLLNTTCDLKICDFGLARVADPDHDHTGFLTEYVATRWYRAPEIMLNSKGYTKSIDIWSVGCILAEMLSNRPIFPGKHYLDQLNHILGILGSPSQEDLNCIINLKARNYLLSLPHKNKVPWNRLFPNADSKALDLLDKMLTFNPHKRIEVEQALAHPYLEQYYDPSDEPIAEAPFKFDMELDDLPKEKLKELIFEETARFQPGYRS
# AR: Androgen receptor (AR, Homo sapiens, UniProt P10275)
# UniProt P10275, sequence (whole entry, looked up): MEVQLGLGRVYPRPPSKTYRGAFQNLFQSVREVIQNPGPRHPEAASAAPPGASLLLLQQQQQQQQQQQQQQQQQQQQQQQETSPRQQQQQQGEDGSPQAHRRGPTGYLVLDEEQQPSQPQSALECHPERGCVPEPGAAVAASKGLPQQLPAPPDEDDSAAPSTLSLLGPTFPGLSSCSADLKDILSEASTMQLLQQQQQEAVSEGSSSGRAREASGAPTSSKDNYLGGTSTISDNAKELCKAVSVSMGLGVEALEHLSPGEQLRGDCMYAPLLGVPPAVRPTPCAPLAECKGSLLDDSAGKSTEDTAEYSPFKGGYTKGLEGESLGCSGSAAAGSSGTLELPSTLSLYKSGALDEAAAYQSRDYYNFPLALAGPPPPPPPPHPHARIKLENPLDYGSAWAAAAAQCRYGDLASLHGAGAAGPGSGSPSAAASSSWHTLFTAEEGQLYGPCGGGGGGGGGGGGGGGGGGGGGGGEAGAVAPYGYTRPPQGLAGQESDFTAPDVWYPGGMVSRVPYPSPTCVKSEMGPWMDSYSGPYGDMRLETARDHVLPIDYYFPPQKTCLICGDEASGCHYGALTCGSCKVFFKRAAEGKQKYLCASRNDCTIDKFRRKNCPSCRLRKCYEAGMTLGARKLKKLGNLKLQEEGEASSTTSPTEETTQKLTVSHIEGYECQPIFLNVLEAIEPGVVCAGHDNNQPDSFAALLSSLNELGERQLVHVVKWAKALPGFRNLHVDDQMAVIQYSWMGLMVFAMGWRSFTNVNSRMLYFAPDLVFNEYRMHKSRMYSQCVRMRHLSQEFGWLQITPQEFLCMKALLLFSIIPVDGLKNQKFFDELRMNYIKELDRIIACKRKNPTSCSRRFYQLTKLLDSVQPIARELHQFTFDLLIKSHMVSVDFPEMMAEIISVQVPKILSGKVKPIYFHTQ
# CA1: Carbonic anhydrase 1 (CA1, Homo sapiens, UniProt P00915)
# UniProt P00915, sequence (whole entry, looked up): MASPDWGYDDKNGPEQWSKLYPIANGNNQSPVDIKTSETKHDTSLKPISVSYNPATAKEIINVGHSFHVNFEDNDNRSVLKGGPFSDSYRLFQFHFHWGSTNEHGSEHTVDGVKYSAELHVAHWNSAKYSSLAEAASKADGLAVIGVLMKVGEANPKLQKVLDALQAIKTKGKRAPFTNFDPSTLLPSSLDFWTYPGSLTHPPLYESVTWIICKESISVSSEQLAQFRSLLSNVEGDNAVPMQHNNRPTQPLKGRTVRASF
# DRD3: D(3) dopamine receptor (DRD3, Homo sapiens, UniProt P35462)
# UniProt P51681, sequence (whole entry, unmodified, looked up): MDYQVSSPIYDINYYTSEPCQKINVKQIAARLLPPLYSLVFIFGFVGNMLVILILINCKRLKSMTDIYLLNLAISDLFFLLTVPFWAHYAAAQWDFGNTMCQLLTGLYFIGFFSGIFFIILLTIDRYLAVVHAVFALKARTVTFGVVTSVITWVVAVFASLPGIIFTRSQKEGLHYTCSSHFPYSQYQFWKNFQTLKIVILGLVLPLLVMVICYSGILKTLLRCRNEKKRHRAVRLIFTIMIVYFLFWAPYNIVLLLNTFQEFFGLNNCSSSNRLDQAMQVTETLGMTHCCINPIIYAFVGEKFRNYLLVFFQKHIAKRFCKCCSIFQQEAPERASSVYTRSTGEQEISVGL
# UniProt P35462, sequence (whole entry, looked up): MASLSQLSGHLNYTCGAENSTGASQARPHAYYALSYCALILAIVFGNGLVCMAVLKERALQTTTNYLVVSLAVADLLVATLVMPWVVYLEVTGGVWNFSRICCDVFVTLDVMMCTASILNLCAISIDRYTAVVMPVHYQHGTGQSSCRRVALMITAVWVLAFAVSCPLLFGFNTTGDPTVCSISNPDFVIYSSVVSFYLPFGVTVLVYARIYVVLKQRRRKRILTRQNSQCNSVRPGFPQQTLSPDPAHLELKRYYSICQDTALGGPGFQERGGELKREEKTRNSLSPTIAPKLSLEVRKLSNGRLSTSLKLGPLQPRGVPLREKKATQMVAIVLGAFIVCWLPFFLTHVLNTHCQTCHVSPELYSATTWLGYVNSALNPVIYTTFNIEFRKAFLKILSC
# UniProt Q9HB89, sequence (whole entry, looked up): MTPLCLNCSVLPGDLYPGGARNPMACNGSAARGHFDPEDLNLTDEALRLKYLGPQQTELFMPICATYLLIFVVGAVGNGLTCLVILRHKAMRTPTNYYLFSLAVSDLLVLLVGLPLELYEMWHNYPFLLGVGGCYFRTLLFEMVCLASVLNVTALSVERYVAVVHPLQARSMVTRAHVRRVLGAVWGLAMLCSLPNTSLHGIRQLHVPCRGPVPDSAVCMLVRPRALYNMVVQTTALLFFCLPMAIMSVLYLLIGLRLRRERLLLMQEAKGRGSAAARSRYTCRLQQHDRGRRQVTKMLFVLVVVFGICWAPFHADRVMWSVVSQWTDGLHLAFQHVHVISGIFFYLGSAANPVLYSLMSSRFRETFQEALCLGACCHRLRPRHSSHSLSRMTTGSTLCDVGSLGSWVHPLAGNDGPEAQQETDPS
# UniProt P55786, sequence (whole entry, looked up): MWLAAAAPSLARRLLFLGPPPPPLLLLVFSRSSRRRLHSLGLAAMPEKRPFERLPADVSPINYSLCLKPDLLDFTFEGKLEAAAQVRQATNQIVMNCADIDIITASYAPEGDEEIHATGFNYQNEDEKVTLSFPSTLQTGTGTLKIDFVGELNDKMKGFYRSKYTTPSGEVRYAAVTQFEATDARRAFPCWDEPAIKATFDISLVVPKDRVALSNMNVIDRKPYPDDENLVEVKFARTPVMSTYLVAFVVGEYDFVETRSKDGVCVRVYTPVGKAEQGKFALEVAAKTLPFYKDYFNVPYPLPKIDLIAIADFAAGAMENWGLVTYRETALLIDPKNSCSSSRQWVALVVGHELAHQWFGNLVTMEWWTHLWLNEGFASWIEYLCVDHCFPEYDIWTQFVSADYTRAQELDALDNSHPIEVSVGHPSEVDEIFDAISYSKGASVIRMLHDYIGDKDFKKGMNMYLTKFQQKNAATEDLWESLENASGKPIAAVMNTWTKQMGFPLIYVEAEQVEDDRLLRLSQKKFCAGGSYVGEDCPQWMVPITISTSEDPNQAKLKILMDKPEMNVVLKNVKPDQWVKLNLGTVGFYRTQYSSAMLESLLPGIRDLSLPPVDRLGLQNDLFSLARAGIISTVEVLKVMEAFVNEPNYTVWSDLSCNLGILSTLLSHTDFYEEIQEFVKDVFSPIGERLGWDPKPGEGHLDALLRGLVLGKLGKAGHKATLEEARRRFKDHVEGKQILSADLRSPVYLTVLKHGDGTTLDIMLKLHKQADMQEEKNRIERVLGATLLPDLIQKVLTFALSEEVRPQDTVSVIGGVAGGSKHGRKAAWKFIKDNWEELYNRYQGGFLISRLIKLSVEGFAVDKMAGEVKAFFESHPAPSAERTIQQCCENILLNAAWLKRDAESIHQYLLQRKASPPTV
# UniProt Q9UKE5, sequence (whole entry, looked up): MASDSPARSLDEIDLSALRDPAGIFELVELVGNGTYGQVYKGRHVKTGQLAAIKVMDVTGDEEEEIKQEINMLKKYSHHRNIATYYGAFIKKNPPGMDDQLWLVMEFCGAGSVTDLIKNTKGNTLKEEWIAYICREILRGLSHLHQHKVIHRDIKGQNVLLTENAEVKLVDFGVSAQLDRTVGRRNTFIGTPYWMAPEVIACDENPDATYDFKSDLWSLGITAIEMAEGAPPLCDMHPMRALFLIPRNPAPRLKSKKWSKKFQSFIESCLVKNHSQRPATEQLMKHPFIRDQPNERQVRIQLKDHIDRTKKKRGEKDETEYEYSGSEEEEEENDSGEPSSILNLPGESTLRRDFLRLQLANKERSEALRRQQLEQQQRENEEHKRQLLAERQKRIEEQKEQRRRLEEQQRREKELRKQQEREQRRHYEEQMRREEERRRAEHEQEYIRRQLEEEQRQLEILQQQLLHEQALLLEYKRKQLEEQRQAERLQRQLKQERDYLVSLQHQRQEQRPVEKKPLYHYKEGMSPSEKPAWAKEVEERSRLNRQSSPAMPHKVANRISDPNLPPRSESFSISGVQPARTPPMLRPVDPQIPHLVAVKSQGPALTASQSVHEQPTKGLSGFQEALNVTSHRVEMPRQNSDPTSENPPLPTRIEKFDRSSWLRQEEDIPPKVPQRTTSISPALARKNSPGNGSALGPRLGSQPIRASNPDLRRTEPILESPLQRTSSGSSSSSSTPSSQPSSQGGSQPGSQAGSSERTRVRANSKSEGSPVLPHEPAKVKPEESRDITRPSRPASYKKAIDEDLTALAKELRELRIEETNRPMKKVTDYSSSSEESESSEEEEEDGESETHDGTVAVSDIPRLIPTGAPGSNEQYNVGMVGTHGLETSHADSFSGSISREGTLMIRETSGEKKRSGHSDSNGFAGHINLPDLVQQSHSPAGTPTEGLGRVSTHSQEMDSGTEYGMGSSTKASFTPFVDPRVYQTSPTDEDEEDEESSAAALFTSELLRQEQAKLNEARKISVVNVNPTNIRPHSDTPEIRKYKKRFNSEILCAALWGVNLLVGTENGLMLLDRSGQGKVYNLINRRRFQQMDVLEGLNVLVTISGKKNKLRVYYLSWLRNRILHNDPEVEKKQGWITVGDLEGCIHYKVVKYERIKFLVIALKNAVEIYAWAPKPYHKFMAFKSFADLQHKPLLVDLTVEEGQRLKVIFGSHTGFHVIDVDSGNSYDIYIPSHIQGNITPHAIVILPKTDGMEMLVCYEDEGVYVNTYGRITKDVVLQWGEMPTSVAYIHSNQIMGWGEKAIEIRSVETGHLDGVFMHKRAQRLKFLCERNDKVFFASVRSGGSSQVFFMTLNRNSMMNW
Structure (SMILES),target or system,assay,test system,conditions,measurement,result
C=C1NC(=O)CNC(=O)[C@H](CCCNC(=N)N)NC(=O)[C@H](Cc2ccc(O)cc2)NC(=O)[C@H](CC(C)C)NC(=O)[C@H](CO)NC(=O)[C@H](CCCCN)NC(=O)[C@H](CC(N)=O)NC(=O)CNC(=O)[C@H](Cc2ccccc2)NC(=O)[C@H](Cc2c[nH]c3ccccc23)NC(=O)[C@H](Cc2c[nH]c3ccccc23)NC(=O)c2ccc(-c3nc(C(=O)OC)cs3)nc2-c2csc1n2,"TNIK (Homo sapiens, UniProt Q9UKE5)","enzyme activity, inhibitor, ADP detection",,,IC50,1.7 µM
CC[C@H](C)[C@H](NC(=O)[C@H](C)NC(=O)[C@@H](N)Cc1ccc(O)cc1)C(=O)N[C@@H](CCCNC(=N)N)C(=O)N[C@@H](C)C(=O)N[C@@H](CCCNC(=N)N)C(=O)N[C@@H](CCCNC(=N)N)C(=O)NCC(=O)N[C@@H](CC(C)C)C(=O)N[C@@H](C)C(=O)N[C@@H](CCCNC(=N)N)C(=O)N[C@@H](CC(C)C)C(=O)N[C@@H](C)C(=O)N[C@H](C(=O)N[C@@H](CO)C(=O)N[C@@H](CC(=O)O)C(=O)O)C(C)C,Mapk1,"enzyme activity, inhibitor, fluorescence",,pH 7.4,IC50,10.6 µM
CCCC(N)P(=O)(Oc1ccccc1)Oc1ccccc1 (stereo not drawn),"Patatin-like phospholipase domain-containing protein 6 (PNPLA6, Homo sapiens, UniProt Q8IY17)",,,,IC50,14.4 µM
CC[C@H](C)[C@H](NC(=O)[C@H](CCCCN)NC(=O)[C@H](CC(N)=O)NC(=O)[C@H](CCCNC(=N)N)NC(=O)[C@H](CCCCN)NC(=O)[C@@H](NC(=O)[C@H](CCCCN)NC(=O)[C@H](C)NC(=O)[C@@H](N)Cc1ccc(O)cc1)[C@@H](C)O)C(=O)N[C@@H](CC(C)C)C(=O)N[C@@H](CCCCN)C(=O)N[C@@H](CC(C)C)C(=O)N[C@@H](CCCCN)C(=O)N[C@@H](Cc1ccccc1)C(=O)N1CCC[C@H]1C(=O)N[C@@H](CCCNC(=N)N)C(=O)O,Mapk1,"enzyme activity, inhibitor, fluorescence",,pH 7.4,IC50,32.5 µM
Cc1nnc(C(C)C)n1C1CC2CCC(C1)N2CCC(NC(=O)Cc1ccc(-c2nncnn2)cc1)c1ccccc1 (stereo not drawn),"CCR5 (Homo sapiens, UniProt P51681, Y184K)","calcium mobilization, antagonist",HEK293T cells expressing CCR5,together with: PSC-RANTES,IC50,0.00621 µM and 0.004 µM and 0.00721 µM
COC1c2cc(C(C)C)c(O)c(O)c2C23CCCC(C)(C)C2C1OC3=O (stereo not drawn),"Cholinesterase (BCHE, Homo sapiens, UniProt P06276)","enzyme activity, inhibitor",,,IC50,0.00481 µM
O=C1NC2(CC2)COc2ncc(F)cc2[C@H]2COCCN2c2ccn3ncc1c3n2,,,"Sprague-Dawley rat, male, serum","oral, 5 mg/kg/day, 4 weeks daily, end of treatment",albumin,34.7 ± 1.8 g/L
CSCC[C@H](N)C(=O)N[C@@H](CC(=O)O)C(=O)N[C@@H](CC(C)C)C(=O)N1CCC[C@H]1C(=O)N[C@@H](Cc1ccccc1)C(=O)N[C@@H](CCC(=O)O)C(=O)N[C@H](Cc1ccccc1)C(N)=O,"Transcriptional regulator PlcR (Bacillus thuringiensis, UniProt A0ACM8Q0N2)","reporter gene, inhibitor, lacZ reporter",407 Cry−,,IC50,0.58 ± 0.035 µM
CC[C@H](C)[C@H](NC(=O)[C@H](CC(C)C)NC(=O)[C@H](CCCCN)NC(=O)[C@H](CCC(=O)O)NC(=O)[C@H](CCCCN)NC(=O)[C@H](CCCNC(=N)N)NC(=O)[C@@H]1CCCN1C(=O)[C@H](CCCNC(=N)N)NC(=O)[C@H](CCC(N)=O)NC(=O)[C@H](CCCCN)NC(=O)[C@@H]1CCCN1C(=O)[C@H](C)NC(=O)[C@@H](N)Cc1ccc(O)cc1)C(=O)N[C@H](C(=O)N1CCC[C@H]1C(=O)N[C@H](C(=O)O)[C@@H](C)O)[C@@H](C)CC,Mapk1,"enzyme activity, inhibitor, fluorescence",,pH 7.4,IC50,163 µM
Cc1cc(Nc2ccc(Cl)cc2)n2nc(C(F)(F)F)nc2n1,"PFF0160c (Plasmodium falciparum, UniProt Q08210)","enzyme activity, inhibitor, absorbance",,,IC50,0.0486 µM
CC[C@H](C)[C@H](NC(=O)[C@H](CCCCN)NC(=O)[C@H](CC(C)C)NC(=O)[C@H](CCCCN)NC(=O)[C@H](CCCNC(=N)N)NC(=O)[C@H](CCCCN)NC(=O)[C@H](CCCCN)NC(=O)[C@@H](NC(=O)[C@H](CCCCN)NC(=O)[C@H](CC(N)=O)NC(=O)[C@H](CCCCN)NC(=O)[C@@H](NC(=O)[C@H](C)NC(=O)[C@@H](N)Cc1ccc(O)cc1)[C@@H](C)O)C(C)C)C(=O)N[C@H](C(=O)N[C@@H](CCCNC(=N)N)C(=O)O)[C@@H](C)CC,Mapk1,"enzyme activity, inhibitor, fluorescence",,pH 7.4,IC50,15.7 µM
C[C@@]12CC[C@@H]3[C@H](CC[C@@H]4C[C@@H](O)CC[C@]43C)[C@H]1CC(=O)C2,AR,"nuclear translocation, antagonist",,,IC50,4.27 µM
Clc1ccc2c(C3=CCN(CCCOc4ccccc4)CC3)c[nH]c2c1,"SLC6A4 (Homo sapiens, UniProt P31645)","ligand displacement, radioligand",,cell membranes,IC50,3.17 µM
Cc1cc(Cl)ccc1OC(C)C(=O)N1CCc2ccccc21 (stereo not drawn),"PFF0160c (Plasmodium falciparum, UniProt Q08210, E182D)","enzyme activity, inhibitor, absorbance",,,IC50,0.12 µM
O=C(CF)N[C@H]1[C@H]([C@H](O)[C@H](O)CNC(=O)c2ccc(-c3ccccc3)cc2)O[C@@](OCc2cccc(Cl)c2Cl)(C(=O)O)C[C@@H]1O,"CD22 (Homo sapiens, UniProt P20273)","ligand binding, inhibitor, competitive bead binding flow cytometry",,together with: 6'SLN(Gc)-PAA-biotin beads,IC50,0.3 ± 0.04 µM
CCc1ccc(S(=O)(=O)Nc2ccc(C3CC3)c(F)c2)cc1S(=O)(=O)F,"GTPase KRas, with RAF (KRAS, Homo sapiens, UniProt P01116)","RAF-KRAS interaction, inhibitor, NanoBRET",HEK293T,24 h,IC50,40 ± 10 µM
O=S(=O)(N/N=C/c1ccc(OS(=O)(=O)c2cc(Cl)ccc2Cl)cc1)c1cc(Cl)ccc1Cl,CA1,"enzyme activity, inhibitor, absorbance",,,IC50,0.0256 µM
COCCCC1CCCCN1C(=O)Oc1ccc([N+](=O)[O-])cc1 (stereo not drawn),"Cocaine esterase (CES2, Homo sapiens, UniProt O00748)","enzyme activity, inhibitor, fluorescence",,,IC50,2.7 µM
O=[N+]([O-])c1ccc(S(=O)(=O)Oc2ccc(/C=N/NS(=O)(=O)c3cc(Cl)ccc3Cl)cc2)cc1,CA1,"enzyme activity, inhibitor, absorbance",,,IC50,0.0145 µM
CC(C)C[C@H](NC(=O)[C@H]1O[C@@H]1C(=O)O)C(=O)NCCCCN=C(N)N,"CAPN1 (Homo sapiens, UniProt P07384)","enzyme activity, inhibitor",,,IC50,0.0516 µM
Cc1[nH]c(C)c(S(=O)(=O)Nc2ccccc2)c1C(=O)N1CCCC1,DRD3,"Go activation, antagonist, BRET",,together with: dopamine,IC50,> 100 µM
O=c1c(O)c(-c2ccc(O)c(O)c2)oc2cc(O)c(O)c(O)c12,"Fructose-bisphosphate aldolase (Candida albicans, UniProt Q9URB4)","enzyme activity, inhibitor, absorbance",,,IC50,1.14 µM
CNC(=O)c1cc(Sc2ccc(OC)cc2)nc2ccccc12,"Calmodulin-domain protein kinase 1, phosphorylated (CDPK1, Toxoplasma gondii, UniProt Q9BJF5)","enzyme activity, inhibitor, ELISA",,,IC50,1.2 µM
Cc1ccc(NS(=O)(=O)c2c(C)[nH]c(C)c2C(=O)N2CCCC2)cc1,DRD3,"β-arrestin recruitment, antagonist",,,IC50,38 µM
O=C(O)CCn1c(=O)oc2cc(Cl)c(Cl)cc21,"ACHE (Homo sapiens, UniProt P22303)",inhibitor,,,IC50,> 100 µM
Cc1cc(-c2ccc3ccccc3c2)nnc1NCCN1CCN(C)CC1,"SLC47A1 (Homo sapiens, UniProt Q96FL8)","transport, inhibitor",,,IC50,0.23 µM
CN(C)c1ncnc2c1ncn2[C@@H]1O[C@H](CCl)[C@@H](NC(=O)[C@H](N)CSC(c2ccccc2)c2ccccc2)[C@H]1O,"Puromycin-sensitive aminopeptidase (Homo sapiens, UniProt P55786)","enzyme activity, inhibitor, fluorescence",,,IC50,8.4 µM
CC(C)C[C@H](NC(=O)[C@H](CCC(N)=O)NC(=O)[C@H](CCCCN)NC(=O)[C@H](CCCNC(=N)N)NC(=O)[C@H](CCCCN)NC(=O)[C@H](CCC(=O)O)NC(=O)[C@H](CCCNC(=N)N)NC(=O)[C@H](CCCNC(=N)N)NC(=O)CNC(=O)[C@H](CC(N)=O)NC(=O)[C@H](C)NC(=O)[C@@H](N)Cc1ccc(O)cc1)C(=O)N[C@H](C(=O)N[C@@H](CC(C)C)C(=O)N1CCC[C@H]1C(=O)N[C@@H](CO)C(=O)O)[C@@H](C)O,Mapk1,"enzyme activity, inhibitor, fluorescence",,pH 7.4,IC50,23.8 µM
Cc1nc(N2CCC(N(C)c3cc(C(=O)NCCN4CCCC4)cnn3)CC2)nc(C)c1CC(C)C,"Cytochrome P450 1A2 (CYP1A2, Homo sapiens, UniProt P05177)","enzyme activity, inhibitor",,,IC50,> 30 µM
CC[C@H](C)[C@H](NC(=O)[C@H](C)NC(=O)[C@H](CC(C)C)NC(=O)[C@H](CCCCN)NC(=O)[C@H](CCCNC(=N)N)NC(=O)[C@H](CCCCN)NC(=O)[C@H](CCCCN)NC(=O)[C@@H](NC(=O)[C@H](CCCCN)NC(=O)[C@H](CC(N)=O)NC(=O)[C@H](CCCCN)NC(=O)[C@@H](NC(=O)[C@H](C)NC(=O)[C@@H](N)Cc1ccc(O)cc1)[C@@H](C)O)C(C)C)C(=O)N[C@H](C(=O)N[C@@H](CCCNC(=N)N)C(=O)O)[C@@H](C)CC,Mapk1,"enzyme activity, inhibitor, fluorescence",,pH 7.4,IC50,59.9 µM
CCCCCCCCCCCCCCCCCC(=O)NC[C@H]1CC[C@H](C(=O)N[C@@H](CCC(=O)NCCCOCCOCCOCCCNC(=O)COCC(=O)N[C@@H](Cc2ccc(O)cc2)C(=O)NC(C)(Cc2ccccc2)C(=O)N[C@@H](CC(C)C)C(=O)N[C@@H](CCCC)C(=O)N[C@@H](CCCNC(=N)N)C(=O)N2CCC[C@H]2C(=O)N[C@@H](CCCNC(=N)NC)C(=O)N[C@@H](CC(N)=O)C(N)=O)C(=O)O)CC1 (stereo partly drawn),"NMUR1 (Homo sapiens, UniProt Q9HB89)","IP-1 accumulation, antagonist",,"30 min preincubation, together with: 0.4 nM human NMU-25",IC50,0.028 µM
CC(C)C[C@H](NC(=O)[C@H](CC(=O)O)NC(=O)[C@H](CCCNC(=N)N)NC(=O)[C@@H]1CCCN1C(=O)[C@H](CCCCN)NC(=O)[C@H](CCCNC(=N)N)NC(=O)CNC(=O)[C@H](CCCCN)NC(=O)[C@H](C)NC(=O)[C@@H](N)Cc1ccc(O)cc1)C(=O)N[C@@H](CCC(=O)O)C(=O)N[C@@H](CC(C)C)C(=O)N1CCC[C@H]1C(=O)N[C@@H](CC(C)C)C(=O)N[C@@H](CO)C(=O)N1CCC[C@H]1C(=O)O,Mapk1,"enzyme activity, inhibitor, fluorescence",,pH 7.4,IC50,52.9 µM
CC1(C)NC(=O)N(c2ccc(F)c(C(C)(F)F)c2)C1=O,AR,"reporter gene, antagonist",,,IC50,31 µM

# Some of these lines once more:
Structure (SMILES),target or system,assay,test system,conditions,measurement,result
Clc1ccc2c(C3=CCN(CCCOc4ccccc4)CC3)c[nH]c2c1,"SLC6A4 (Homo sapiens, UniProt P31645)","ligand displacement, radioligand",,cell membranes,IC50,3.17 µM
COC1c2cc(C(C)C)c(O)c(O)c2C23CCCC(C)(C)C2C1OC3=O (stereo not drawn),"Cholinesterase (BCHE, Homo sapiens, UniProt P06276)","enzyme activity, inhibitor",,,IC50,0.00481 µM
CC[C@H](C)[C@H](NC(=O)[C@H](CCCCN)NC(=O)[C@H](CC(C)C)NC(=O)[C@H](CCCCN)NC(=O)[C@H](CCCNC(=N)N)NC(=O)[C@H](CCCCN)NC(=O)[C@H](CCCCN)NC(=O)[C@@H](NC(=O)[C@H](CCCCN)NC(=O)[C@H](CC(N)=O)NC(=O)[C@H](CCCCN)NC(=O)[C@@H](NC(=O)[C@H](C)NC(=O)[C@@H](N)Cc1ccc(O)cc1)[C@@H](C)O)C(C)C)C(=O)N[C@H](C(=O)N[C@@H](CCCNC(=N)N)C(=O)O)[C@@H](C)CC,Mapk1,"enzyme activity, inhibitor, fluorescence",,pH 7.4,IC50,15.7 µM
CC[C@H](C)[C@H](NC(=O)[C@H](C)NC(=O)[C@@H](N)Cc1ccc(O)cc1)C(=O)N[C@@H](CCCNC(=N)N)C(=O)N[C@@H](C)C(=O)N[C@@H](CCCNC(=N)N)C(=O)N[C@@H](CCCNC(=N)N)C(=O)NCC(=O)N[C@@H](CC(C)C)C(=O)N[C@@H](C)C(=O)N[C@@H](CCCNC(=N)N)C(=O)N[C@@H](CC(C)C)C(=O)N[C@@H](C)C(=O)N[C@H](C(=O)N[C@@H](CO)C(=O)N[C@@H](CC(=O)O)C(=O)O)C(C)C,Mapk1,"enzyme activity, inhibitor, fluorescence",,pH 7.4,IC50,10.6 µM
